Assay results collected from several papers.
Protocols differ between the studies behind these lines. “And” joins repeats or separate records; there may be more than shown. Values after ≈ are worked out from the molar mass of the structure shown.

NC[C@H]1O[C@H](O[C@H]2[C@H](O)[C@@H](O[C@H]3O[C@H](CO)[C@@H](O)[C@H](N)[C@H]3O)[C@H](N)C[C@@H]2N)[C@H](O)[C@@H](O)[C@@H]1O  survival (Acinetobacter baumannii; colony counting; 19606, biofilm; 50 µg/mL, 12 h, without HNP1): 0.674% and 1.35% and 1.26% and 0.539%
COc1ccc(C(=O)O)cc1NC(=O)/C=C/c1ccc(-c2ccccc2C)cc1  IC50 (Tetrahymena pyriformis and Klebsiella pneumoniae; virulence in co-culture): 290 nM
CC1(C)SC2C(NC(=O)C(NC(=O)C3=C(O)C(Cc4ccc(F)cc4)NC3=O)c3ccccc3)C(=O)N2C1C(=O)O (centres unmarked)  MIC (Escherichia coli; broth microdilution; isolate IU 356 A, KPC-3, VIM-1, TEM; no clavulanic acid): > 200 µg/mL
CC[C@H](C)[C@H](NC(=O)[C@H](C)NC(=O)[C@H](CCCCN)NC(=O)[C@H](CC(C)C)NC(=O)[C@H](C)NC(=O)[C@@H](NC(=O)[C@H](Cc1c[nH]cn1)NC(=O)[C@H](CC(C)C)NC(=O)[C@@H](NC(=O)[C@@H](NC(=O)[C@H](CCCCN)NC(=O)[C@H](C)NC(=O)[C@H](C)NC(=O)[C@H](CO)NC(=O)[C@H](CCCCN)NC(=O)[C@H](Cc1ccccc1)NC(=O)[C@@H](NC(=O)[C@H](CCCCN)NC(=O)[C@H](CC(C)C)NC(=O)[C@H](Cc1ccccc1)NC(=O)[C@H](CO)NC(=O)[C@H](CCCCN)NC(=O)[C@H](Cc1c[nH]c2ccccc12)NC(=O)[C@H](CCCCN)NC(C)=O)[C@@H](C)O)[C@@H](C)O)C(C)C)[C@@H](C)O)C(=O)N[C@@H](CO)C(=O)N[C@@H](CO)C(N)=O  MIC90 (Enterococcus faecalis; 40 strains): > 64 µg/mL
CC(C)CC(=O)OC[C@H]1O[C@@](C#N)(c2ccc3c(N)ncnn23)[C@H](O)[C@@H]1O  lung viral RNA reduction (human respiratory syncytial virus; RT-PCR; A2, BALB/c mouse; oral, twice daily, dose not given, day 4 post-infection): 1.47 log10
Nc1ncnc2c1ncn2[C@@H]1O[C@@H]2COP(=O)(O)O[C@H]3[C@@H](O)[C@H](n4cnc5c(=O)[nH]cnc54)O[C@@H]3COP(=O)(O)O[C@H]2[C@H]1O  fold enrichment (West Nile virus; RNA sequencing, refers to: collagen modifying enzymes, biosynthesis, R-HSA-1650814; HFF-1 cells; concentration not given, downregulated pathway; relative to: WNV-infected untreated cells): 7.03
COC1/C=C/OC2(C)Oc3c(C)c(O)c4c(O)c(c5c(nc6cc(C)ccn65)c4c3C2=O)NC(=O)/C(C)=C\C=C\C(C)C(O)C(C)C(O)C(C)C(OC(C)=O)C1C (centres unmarked)  IC50 (Tetrahymena pyriformis and Klebsiella pneumoniae; virulence in co-culture): 390 nM
O=[N+]([O-])c1ccc(C2=[N+]([O-])c3ccccc3N3CCN=C23)cc1  MIC90 (Parabacteroides distasonis and Bacteroides spp.; bacterial growth): ≤ 0.06 µg/mL
COC1=CC(c2ccc[nH]2)=N/C1=C\c1cc(Cc2ccc(C(F)(F)F)cc2)c(C)[nH]1.Cl  parasitaemia reduction (Plasmodium yoelii; CF1 mice; oral, 10 mg/kg daily for 4 days, day 5; relative to: vehicle): 100%
Fc1ccc(N2CCc3c(nnn3CC(c3ccccc3)c3ccccc3)C2)cc1  EC50 (human adenovirus 2; viral replication; HEL): > 100000 nM
COc1cccc(C(=O)NN(C(=O)c2cc(C)cc(C)c2)C(C)(C)C)c1C  lifespan (Anopheles gambiae s.l.; resistant; tarsal contact, dose not given, 24 h post blood meal, added: RME; relative to: control): decreased
CS(=O)(=O)CCCn1c(Cn2c(=O)n(CC(F)(F)F)c3ccncc32)cc2cc(Cl)ccc21  LS mean difference vs placebo (respiratory syncytial virus; RT-qPCR; hospitalized infants 1-24 months, nasal swab; oral, 2, 1.5 or 1 mg/kg daily, day 3, low dose by age cohort; relative to: placebo): -2.23 log10 copies/mL
N#CCNC(=O)c1cnccc1C(F)(F)F  flightless or dead mosquitoes (Aedes aegypti; adult females; topical, 12.5 nmol/mosquito, 24 h): 58.7%
COc1ccc2c(ccc3oc([N+](=O)[O-])c(OC)c32)c1  MIC90 (Mycolicibacterium aurum; REMA; ATCC 23366): > 32 µg/mL
CN[C@H](CC(C)C)C(=O)N[C@H]1C(=O)N[C@@H](CC(N)=O)C(=O)N[C@H]2C(=O)N[C@H]3C(=O)N[C@H](C(=O)N[C@H](C(=O)O)c4cc(O)cc(O)c4-c4cc3ccc4O)[C@H](O)c3ccc(c(Cl)c3)Oc3cc2cc(c3O[C@@H]2O[C@H](CO)[C@@H](O)[C@H](O)[C@H]2O[C@H]2C[C@](C)(N)[C@H](O)[C@H](C)O2)Oc2ccc(cc2Cl)[C@H]1O  MIC range (Enterococcus faecalis; broth microdilution; VanB vancomycin-resistant clinical isolates): > 32 µg/mL
CC(C)/N=C(\N)c1ccc(NC(=O)c2ccc(C(=O)Nc3ccc(/C(N)=N/C(C)C)cc3)cc2)cc1  IC50 (Tetrahymena pyriformis and Klebsiella pneumoniae; virulence in co-culture): 1390 nM
CC[C@H](C)C[C@H](C)CCCCCCCCC(=O)N[C@H]1C[C@@H](O)[C@@H](NCCN)NC(=O)[C@@H]2[C@@H](O)CCN2C(=O)[C@H]([C@H](O)CCN)NC(=O)[C@H]([C@H](O)[C@@H](O)c2ccc(O)cc2)NC(=O)[C@@H]2C[C@@H](O)CN2C(=O)[C@H]([C@@H](C)O)NC1=O  MFC (Pichia norvegensis; broth dilution; ATCC 96139; 48 h, 37 °C): 0.5 µg/mL (≈ 0.457 µM)
CCCCCC[C@H]1C(=O)O[C@H](C)[C@H](NC(=O)c2cccc(NC=O)c2O)C(=O)O[C@@H](C)[C@@H]1OC(=O)CC(C)C  viral replication (bovine herpesvirus 1; inhibitor; MDBK cells, wild type; concentration not given, 8 h): inhibited
O=[N+]([O-])c1cc2c(ccc3c4cc([N+](=O)[O-])oc4ccc23)o1  MIC90 (Mycolicibacterium aurum; REMA; ATCC 23366): 16 µg/mL (≈ 53.7 µM)
COC1=CC(c2ccc[nH]2)=N/C1=C\c1[nH]c(Cc2ccccc2)cc1Cc1ccccc1.Cl  parasitaemia reduction (Plasmodium yoelii; CF1 mouse; oral, 80 mg/kg single dose, day 5): 100%
Cc1c2c(nn1C)CSCc1cc(n(C)n1)CSc1cc(c3ccccc3c1)OCCCc1c(C(=O)O)n(C)c3c-2c(Cl)ccc13  protein level fold change (Staphylococcus aureus; label-free proteomics, refers to: acyP; SA113; concentration not given; relative to: untreated): 6.59
Cn1c(=O)ccc2ccc(F)c(CCNC[C@H]3CN(c4cnc5c(n4)NC(=O)CO5)C(=O)O3)c21  MIC50 (Salmonella sp.): 0.12 µg/mL (≈ 0.256 µM)
COc1ccc(-c2csc(NC(=O)c3ccc(C(=O)Nc4nc(-c5ccc(OC)c(OC)c5)cs4)s3)n2)cc1OC  IC50 (Tetrahymena pyriformis and Klebsiella pneumoniae; virulence in co-culture): 0.94 nM
COc1ccccc1CNC(=O)CCn1c(=O)[nH]c2ccsc2c1=O  inhibition (Plasmodium yoelii; oxygen consumption; 17XL; 2 µM): 2%
COC1=CC(c2ccc[nH]2)=N/C1=C\c1cc(Cc2ccc(Cl)cc2)c(C)[nH]1.Cl  parasitaemia reduction (Plasmodium yoelii; CF1 mice; oral, 10 mg/kg daily for 4 days, day 5; relative to: vehicle): 100%
COc1cc2oc([N+](=O)[O-])cc2c2ccccc12  MIC90 (Klebsiella aerogenes; REMA): > 32 µg/mL

Repeated from above:
COC1=CC(c2ccc[nH]2)=N/C1=C\c1cc(Cc2ccc(Cl)cc2)c(C)[nH]1.Cl  parasitaemia reduction (Plasmodium yoelii; CF1 mice; oral, 10 mg/kg daily for 4 days, day 5; relative to: vehicle): 100%
NC[C@H]1O[C@H](O[C@H]2[C@H](O)[C@@H](O[C@H]3O[C@H](CO)[C@@H](O)[C@H](N)[C@H]3O)[C@H](N)C[C@@H]2N)[C@H](O)[C@@H](O)[C@@H]1O  survival (Acinetobacter baumannii; colony counting; 19606, biofilm; 50 µg/mL, 12 h, without HNP1): 0.674% and 1.35% and 1.26% and 0.539%
CC(C)CC(=O)OC[C@H]1O[C@@](C#N)(c2ccc3c(N)ncnn23)[C@H](O)[C@@H]1O  lung viral RNA reduction (human respiratory syncytial virus; RT-PCR; A2, BALB/c mouse; oral, twice daily, dose not given, day 4 post-infection): 1.47 log10
